Experimental data pooled from the literature.
Compare with care: the assays were run in different laboratories. Values joined by “and” are separate records of one study, mostly repeats; a detail may differ. ± marks the error that the study gave. In brackets after ≈: the same amount, converted by molar mass.

| SMILES | tested on | assay | system | conditions | how to read | measurement | value |
| --- | --- | --- | --- | --- | --- | --- | --- |
| COCC(=O)N1CCC[C@H](C(=O)NCc2nc(C3=CCOCC3)cs2)C1 | Plasmodium falciparum | SYBR Green growth | asexual blood-stage parasites, 3D7 | 72 h |  | EC50 | > 5000 nM |
| Cc1cc(OC(C)C)ccc1C(=O)C(C)(C)NC(=O)c1sccc1C | Botrytis cinerea | germ tube elongation | B05.10 | 0.1 µg/mL |  | inhibition | 84.9 ± 9% |
| O=C1c2ccccc2C(=O)c2c(O)c(O)cc(O)c21 | Drosophila melanogaster | fluorescence |  | liquid food, 40 µg/mL, first instar larvae | relative to: solvent | fluorescein ingestion | -41.4% |
| CC(C)n1ncc2c(C(=O)NCC3(C)CNC3)cc(C3CC3)nc21 | Enterovirus D68 | viral replication | RD, US/MO/14-18947 | 0.003 µM | relative to: untreated | plaque area | 110% and 97.4% |
| COc1ccccc1C(=O)N1CCC[C@H](C(=O)NCc2nc(-c3ccccc3)cs2)C1 | Plasmodium falciparum | SYBR Green growth | asexual blood-stage parasites, 3D7 | 72 h |  | EC50 | 2900 ± 450 nM |
| Nc1nc(-c2ccccc2)nc2[nH]nc(Nc3ccc(C(F)(F)F)cc3)c12 | coxsackievirus B3 |  | 31-1-93, NMRI mice, CVB3 chronic myocarditis | oral, 100 mg/kg twice daily, day 17, dosed days 0 to 6, score scale 0 to 7 | direction not given | clinical score | 0 |
| O=C(O)CCCc1ccccc1 |  | binding, MIDAS equilibrium dialysis LC-MS | A2AR-BRIL thermostabilized | concentration not given | relative to: no-protein control | log2 fold change | -0.175 |
| CC(=O)NC[C@H]1CN(c2ccc(N3CCOCC3)c(F)c2)C(=O)O1 | Staphylococcus aureus |  | MRSA, 10 isolates | serum 0% |  | MIC50 | 1 µg/mL (≈ 2.96 µM) |
| NC(=O)N1c2ccccc2C=Cc2ccccc21 | Drosophila melanogaster | fluorescence |  | liquid food, 40 µg/mL, first instar larvae | relative to: solvent | fluorescein ingestion | 14.9% |
| O=C(NCc1nc(-c2ccccc2)cs1)[C@H]1CCCN(C(=O)COCC2CC2)C1 | Plasmodium falciparum | SYBR Green growth | asexual blood-stage parasites, 3D7 | 72 h |  | EC50 | 72 ± 1 nM |
| C[n+]1cccc(C(N)=O)c1 |  | binding, MIDAS equilibrium dialysis LC-MS | A2AR-BRIL thermostabilized | concentration not given | relative to: no-protein control | log2 fold change | -0.0971 |
| COCC(=O)N1CCC[C@H](C(=O)NCc2nc(-c3ccc(C#N)cc3)cs2)C1 | Plasmodium falciparum | SYBR Green growth | asexual blood-stage parasites, 3D7 | 72 h |  | EC50 | 34 ± 6.4 nM |
| C[C@@H]1[C@H](O)[C@@H](C)/C=C/C=C/C=C/C=C/C=C/C=C/C=C/[C@H](O[C@@H]2O[C@H](C)[C@@H](O)[C@H](N)[C@@H]2O)C[C@@H]2O[C@](O)(C[C@@H](O)C[C@@H](O)[C@H](O)CC[C@@H](O)C[C@@H](O)CC(=O)O[C@H]1C)C[C@H](O)[C@H]2C(=O)O | Leishmania major | eosin vital stain | promastigote | 500 µg/mL, 24 h |  | antileishmanial activity | 76.5% and 74.9% |
| COC(=O)[C@@H](NCc1cc2ccccc2nc1OCc1ccccc1)C(C)C | Pseudomonas aeruginosa |  |  | 64 µg/mL, without pentamidine | relative to: control | growth | 93.1% |
| O=C(Nc1ccc(CNc2ncnc3ccccc23)cc1)c1ccc(Cl)c(F)c1 | Plasmodium falciparum | LDH readout | 3D7 Hyp1-Nluc | 2 µM, 72 h | relative to: DMSO | parasite growth | 16.4% |

A few entries again:
| SMILES | tested on | assay | system | conditions | how to read | measurement | value |
| --- | --- | --- | --- | --- | --- | --- | --- |
| O=C1c2ccccc2C(=O)c2c(O)c(O)cc(O)c21 | Drosophila melanogaster | fluorescence |  | liquid food, 40 µg/mL, first instar larvae | relative to: solvent | fluorescein ingestion | -41.4% |
| CC(=O)NC[C@H]1CN(c2ccc(N3CCOCC3)c(F)c2)C(=O)O1 | Staphylococcus aureus |  | MRSA, 10 isolates | serum 0% |  | MIC50 | 1 µg/mL (≈ 2.96 µM) |
